Assay results of several laboratories.
Each line is one published result; not all experiments were run side by side. ± gives the spread as reported.

SMILES	assay	system	conditions	quantity	value
COC(=O)C[C@H](NC(=O)[C@H](C)NC(=O)[C@@H](NC(=O)[C@H](CC(=O)OC)NC(=O)[C@@H](NC(=O)c1ccc2ccccc2n1)C(C)C)C(C)C)C(=O)COc1c(F)cccc1F		Wistar rat pups, focal ischemia-reperfusion	dose not given, up to 48 h	body temperature and weight	no effect
CC(=O)c1cccc(-c2cccc(OC(=O)NC3CCCCC3)c2)c1		rat plasma		log hydrolysis rate constant	-1.5
[2H]C([2H])([2H])C([2H])([2H])C([2H])([2H])OC(C(=O)OC1CCNCC1)(c1ccccc1)c1ccccc1		healthy Japanese male subjects, plasma	oral, 15 mg once daily, day 16, fed, mean	Cmax	157 ng/mL
CSCC[C@@H]1NC(=O)[C@@H]2CSSC[C@H](NC(=O)[C@H](CO)NC(=O)[C@H](C)N)C(=O)N[C@@H](CCCNC(=N)N)C(=O)N[C@@H]([C@@H](C)O)C(=O)N3CCC[C@H]3C(=O)N[C@@H](CCCCN)C(=O)N[C@@H](CC(=O)O)C(=O)N[C@H]3CSSC[C@H](NC(=O)[C@H](CCCCN)NC(=O)[C@H](CCCNC(=N)N)NC(=O)[C@H](CC(N)=O)NC1=O)C(=O)N[C@@H](CCCCN)C(=O)N[C@H]1CSSC[C@H](NC(=O)[C@@H]4CCCN4C(=O)[C@H](CC(=O)O)NC(=O)[C@H](C)NC3=O)C(=O)N[C@@H](C)C(=O)N[C@@H](CCCCN)C(=O)N[C@@H](CCC(=O)O)C(=O)N[C@@H]([C@@H](C)O)C(=O)NCC(=O)N[C@@H](CSSC[C@@H](C(N)=O)NC(=O)[C@H](CCCNC(=N)N)NC(=O)[C@H](CC(N)=O)NC1=O)C(=O)N1CCC[C@H]1C(=O)N[C@@H](Cc1ccc(O)cc1)C(=O)NCC(=O)N[C@@H](CCCCN)C(=O)N2		DA rat pristane-induced arthritis, serum	subcutaneous, 0.1 mg/kg single dose at onset, 21 days	Chloride	98.6 mmol/L
CCc1c2c(nc3ccc(OC4OC(C(=O)O)C(O)C(O)C4O)cc13)-c1cc3c(c(=O)n1C2)COC(=O)C3(O)CC (stereo not drawn)		human patients, plasma	intravenous, 133 mg/m^2 of parent drug	Cmax	163 ng/mL
CC(C)(CCCC/C=C/CCCCCC(C)(C)C(=O)O)C(=O)O		rhesus monkey, male, hyperlipidaemic, plasma	oral, 20 mg/kg, first dose	AUC(0-t)	1780 ± 530 µg·h/mL
CC[C@H](C)C(=O)N1CCC(NC(=O)Nc2ccc(OC(F)(F)F)c(F)c2)CC1		human, plasma	oral, 8 mg, single dose, fed, healthy volunteers	AUC(0-inf)	4.26 µg·h/mL
C#Cc1c(F)ccc2cc(O)cc(-c3ncc4c(N5CC6CCC(C5)N6C(=O)/C(C)=C(/C)C(=O)OCCCC)nc(OC[C@@]56CCCN5C[C@H](F)C6)nc4c3F)c12		mouse whole blood	60 min	parent drug release	not detected
C[C@H]1C(OC(=O)C(C)(C)C)O[C@@H]2O[C@@]3(C)CC[C@H]4[C@H](C)CCC1[C@@]24OO3 (stereo partly drawn)		Tg(fli1:EGFP) zebrafish embryos	10 µg/mL, up to 48 hpf	dead embryos	1 count
CC(C)C[C@H](NC(=O)[C@H](CCCCN)NC(=O)[C@H](CCC(=O)O)NC(=O)[C@H](C)NC(=O)[C@@H](NC(=O)[C@H](CCCCN)NC(=O)[C@H](CC(=O)O)NC(=O)[C@H](Cc1ccc(O)cc1)NC(=O)[C@H](Cc1ccccc1)NC(=O)[C@H](C)NC(=O)[C@H](CCCCN)NC(=O)[C@H](CC(C)C)NC(=O)[C@H](Cc1c[nH]c2ccccc12)NC(=O)[C@@H](N)CC(=O)O)C(C)C)C(=O)N[C@@H](CCCCN)C(=O)N[C@@H](CCC(=O)O)C(=O)N[C@@H](C)C(=O)N[C@@H](Cc1ccccc1)C(=O)N1CCC[C@H]1C(=O)N[C@@H](CC(=O)O)C(=O)N[C@@H](Cc1c[nH]c2ccccc12)C(=O)N[C@@H](C)C(=O)N[C@@H](CCCCN)C(=O)N[C@@H](C)C(=O)N[C@@H](C)C(=O)N[C@@H](Cc1ccc(O)cc1)C(=O)N[C@@H](CC(=O)O)C(=O)N[C@@H](CCCCN)C(=O)N[C@@H](C)C(=O)N[C@@H](C)C(=O)N[C@@H](CCC(=O)O)C(=O)N[C@@H](CCCCN)C(=O)N[C@@H](C)C(=O)N[C@@H](CCCCN)C(=O)N[C@@H](CCC(=O)O)C(=O)N[C@@H](C)C(=O)N[C@@H](C)C(=O)O		cynomolgus monkey male, plasma	intravenous infusion, 25 mg/kg every other day, day 27	Tmax	0 h
COC(=O)C[C@](O)(CCCC(C)(C)OC(C)=O)C(=O)O[C@@H]1C(OC)=C[C@]23CCCN2CCc2cc4c(cc2[C@H]13)OCO4		CD1 mouse, pancreas	oral, 1 mg/kg, 24 h, below quantification limit 1.00 ng/mL	tissue concentration	not detected
COc1cc(NC(=O)C(=O)c2c(C)n(Cc3ccc(Cl)cc3)c3ccc(C)cc23)ccn1		cynomolgus monkey, plasma	intravenous, 1 mg/kg	clearance	8 to 11 mL/min/kg
CC(C)C[C@H](NC(=O)[C@H](Cc1ccc(O)cc1)NC(=O)CNC(=O)CNC(=O)CNC(=O)[C@H](Cc1c[nH]cn1)NC(=O)[C@H](Cc1c[nH]cn1)NC(=O)[C@@H](NC(=O)CNC(=O)[C@H](Cc1c[nH]cn1)NC(=O)[C@H](Cc1ccccc1)NC(=O)[C@H](CC(C)C)NC(=O)[C@H](CC(C)C)NC(=O)[C@H](CCCNC(=N)N)NC(=O)[C@H](Cc1ccccc1)NC(=O)[C@@H](N)Cc1ccccc1)C(C)C)C(=O)N[C@@H](CC(N)=O)C(=O)N[C@@H](C)C(=O)N[C@@H](C)C(N)=O		zebrafish embryos	1, 5, 25 µM, 4, 28, 52 hpf	toxicity	not toxic
CC[C@H](C)[C@H](NC(=O)CN)C(=O)N[C@@H](CC(C)C)C(=O)N[C@@H](CCCCN)C(=O)N[C@@H](Cc1ccccc1)C(=O)N[C@@H](CC(C)C)C(=O)N[C@@H](CCC(=O)O)C(=O)N[C@@H](CO)C(=O)N[C@@H](C)C(=O)N[C@@H](CCCCN)C(=O)N[C@@H](CCCCN)C(=O)N[C@@H](Cc1c[nH]c2ccccc12)C(=O)N[C@@H](CC(C)C)C(=O)N[C@@H](CCC(=O)O)C(=O)N[C@@H](C)C(=O)N[C@@H](Cc1ccccc1)C(=O)N[C@@H](CC(C)C)C(=O)N[C@@H](C)C(=O)N[C@@H](CCC(=O)O)C(=O)N[C@H](C(=O)N[C@@H](CCSC)C(=O)N[C@@H](CC(N)=O)C(=O)N[C@@H](CO)C(=O)O)[C@@H](C)CC	circular dichroism	POPC vesicles 5 mM	20 µM, fully membrane bound	helicity	69%
C[C@H]1C(=O)O[C@@H]2O[C@@]3(C)CC[C@@H]4[C@@]2(OO3)[C@H]1CC[C@]4(C)O		healthy Chinese human	oral, dose not given, day 2	free Cmax	175 ± 64.3 nM
[11CH3]n1c(=O)n(CCCO)c(=O)c2c1nc(Oc1cccc(OC(F)(F)F)c1)n2Cc1ccc(Cl)cc1	ex vivo biodistribution	Sprague Dawley rat, heart	5 min post injection	tracer uptake	2.06 ± 0.58 %ID/g
[Cl-].[Cl][Ru-4]123([n+]4ccccc4-c4cc(-c5ccccc5)cc([n+]41)-c1cccc[n+]12)[n+]1ccc(-c2ccccc2)c2ccc4c(-c5ccccc5)cc[n+]3c4c21		zebrafish embryos	20 µM	toxicity	not toxic
CCc1noc(CC)c1C(=O)O[C@H]1C(C)=C[C@]23C(=O)[C@@H](C=C(CO)[C@@H](O)[C@]12O)[C@H]1[C@@H](C[C@H]3C)C1(C)C		human, epidermis, Franz diffusion cell	topical, 0.1% in hydroalcoholic gel, 21 h, stratum corneum removed	epidermal concentration	100 µM
CSCC[C@H](NC(=O)CNC(=O)[C@H](CC(=O)O)NC(=O)[C@@H](NC(=O)[C@@H](NC(=O)[C@@H](NC(=O)CNC(=O)[C@H](CCC(=O)O)NC(=O)[C@H](CCSC)NC(=O)[C@H](CC(=O)O)NC(=O)[C@H](C)NC(=O)[C@H](C)NC(=O)[C@@H](NC(=O)[C@H](CO)NC(=O)[C@@H](N)CC(C)C)[C@@H](C)O)C(C)C)C(C)C)[C@@H](C)O)C(=O)N[C@@H](C)C(=O)N[C@@H](CO)C(=O)NCC(=O)N[C@@H](CC(C)C)C(=O)N[C@@H](CC(=O)O)C(=O)N[C@@H](CCCCN)C(=O)N[C@@H](CC(=O)O)C(=O)N[C@@H](Cc1ccc(O)cc1)C(=O)N[C@@H](CC(C)C)C(=O)N[C@@H](CCCCN)C(=O)N1CCC[C@H]1C(=O)N[C@@H](CC(=O)O)C(=O)N[C@@H](CC(=O)O)C(=O)O		male CD-1 mice, serum	intravenous, 480 mg/kg	t1/2 alpha	2 min
CC(C)C[C@@H](/C=C/C(F)(F)C(=O)NC1CC(C)(C)N([O])C(C)(C)C1)NC(=O)OC(C)(C)C	metabolic stability	male mouse, liver microsomes	1 h	compound remaining	27%
CC(C)[C@H](NC(=O)CNC(=O)[C@H](CCC(N)=O)NC(=O)[C@H](C)N)C(=O)O	Possibly drug-related	human	20 mg/kg, 3 days, thrice daily dosing	subjects with adverse events	0%

Some of these lines once more:
SMILES	assay	system	conditions	quantity	value
COC(=O)C[C@](O)(CCCC(C)(C)OC(C)=O)C(=O)O[C@@H]1C(OC)=C[C@]23CCCN2CCc2cc4c(cc2[C@H]13)OCO4		CD1 mouse, pancreas	oral, 1 mg/kg, 24 h, below quantification limit 1.00 ng/mL	tissue concentration	not detected
CSCC[C@H](NC(=O)CNC(=O)[C@H](CC(=O)O)NC(=O)[C@@H](NC(=O)[C@@H](NC(=O)[C@@H](NC(=O)CNC(=O)[C@H](CCC(=O)O)NC(=O)[C@H](CCSC)NC(=O)[C@H](CC(=O)O)NC(=O)[C@H](C)NC(=O)[C@H](C)NC(=O)[C@@H](NC(=O)[C@H](CO)NC(=O)[C@@H](N)CC(C)C)[C@@H](C)O)C(C)C)C(C)C)[C@@H](C)O)C(=O)N[C@@H](C)C(=O)N[C@@H](CO)C(=O)NCC(=O)N[C@@H](CC(C)C)C(=O)N[C@@H](CC(=O)O)C(=O)N[C@@H](CCCCN)C(=O)N[C@@H](CC(=O)O)C(=O)N[C@@H](Cc1ccc(O)cc1)C(=O)N[C@@H](CC(C)C)C(=O)N[C@@H](CCCCN)C(=O)N1CCC[C@H]1C(=O)N[C@@H](CC(=O)O)C(=O)N[C@@H](CC(=O)O)C(=O)O		male CD-1 mice, serum	intravenous, 480 mg/kg	t1/2 alpha	2 min
